Measured values collected from several papers.
“And” joins repeats or separate records; there may be more than shown.
Cell line: M14

CCCCN1CCN(c2ccc3nc(-c4ccc5nc(-c6cc(OC)ccc6OC)[nH]c5c4)[nH]c3c2)CC1  growth percent (SRB; 10 µM, 48 h): 112%
Cc1cc(-c2ccccc2)n(-c2nc(-c3ccc(Cl)cc3)c3c(NC(=O)c4ccccc4)nnc-3[nH]2)n1  cell growth (SRB; 10 µM, NCI60 single-dose screen; relative to: untreated): 103%
C#C[C@@]1(O)[C@@H](CO)O[C@@H](n2cc(Cl)c3c(N)ncnc32)[C@@H]1O  TGI (SRB; NCI-60 screen): 0.659 µM and 0.52 µM
Cn1cncc1C1=CN(c2ncnc3[nH]cnc23)CCS1  TGI (melanoma cell line): 49 µM
CCCCN1CCN(c2ccc3[nH]c(-c4ccc5[nH]c(-c6ccc(OCC)cc6)nc5c4)nc3c2)CC1  growth percent (SRB; 10 µM, 48 h): 32.7%
O=C(Nc1nnc2n3c(=S)[nH][nH]c3nc(-c3ccc(Cl)cc3)c1-2)c1ccccc1  cell growth (SRB; 10 µM, NCI60 single-dose screen; relative to: untreated): 107%
CCCN1CCN(c2ccc3[nH]c(-c4ccc5[nH]c(-c6ccc(C(F)(F)F)cc6)nc5c4)nc3c2)CC1  growth percent (SRB; 10 µM, 48 h): -59%
CSc1nc(-c2ccc(Cl)cc2)c2c(NC(=O)c3ccccc3)nnc-2[nH]1  cell growth (SRB; 10 µM, NCI60 single-dose screen; relative to: untreated): 96.8%
CCCCN1CCN(c2ccc3[nH]c(-c4ccc5[nH]c(-c6ccc(OCC)c(OCC)c6)nc5c4)nc3c2)CC1  growth percent (SRB; 10 µM, 48 h): -28%
C#C[C@@]1(O)[C@@H](CO)O[C@@H](n2cc(I)c3c(N)ncnc32)[C@@H]1O  TGI (SRB; NCI-60 screen): 8.47 µM and 10.7 µM
S=C([S][Au-][P+](CCCCCC[P+]([Au-][S]C(=S)n1cccn1)(c1ccccc1)c1ccccc1)(c1ccccc1)c1ccccc1)n1cccn1  log TGI (cell growth, NCI-60 screen; melanoma): > -4 log10 M
C#C[C@@]1(O)[C@@H](CO)O[C@@H](n2cc(F)c3c(N)ncnc32)[C@@H]1O  TGI (SRB; NCI-60 screen): 2.39 µM
O=C(Nc1nnc2n3c(Cc4ccccc4)n[nH]c3nc(-c3ccc(Cl)cc3)c1-2)c1ccccc1  cell growth (SRB; 10 µM, NCI60 single-dose screen; relative to: untreated): 99.6%
CCN(CC)c1ccc(C=NNC(=O)CSc2nc3ccccc3c(=O)n2Cc2ccc(S(N)(=O)=O)cc2)c(O)c1  TGI (NCI five-dose screen): 10.9 µM
COc1ccc(OC)c(-c2nc3ccc(-c4nc5ccc(N6CCN(C)CC6)cc5[nH]4)cc3[nH]2)c1  growth percent (SRB; 10 µM, 48 h): 102%
CCOC(=O)CSc1nc(-c2ccc(Cl)cc2)c2c(NC(=O)c3ccccc3)nnc-2[nH]1  cell growth (SRB; 10 µM, NCI60 single-dose screen; relative to: untreated): 98.3%

Some of these lines once more:
O=C(Nc1nnc2n3c(=S)[nH][nH]c3nc(-c3ccc(Cl)cc3)c1-2)c1ccccc1  cell growth (SRB; 10 µM, NCI60 single-dose screen; relative to: untreated): 107%
CCCN1CCN(c2ccc3[nH]c(-c4ccc5[nH]c(-c6ccc(C(F)(F)F)cc6)nc5c4)nc3c2)CC1  growth percent (SRB; 10 µM, 48 h): -59%
